# Assay results pooled from the literature.
# Every numbered part comes from another study and shows a few of its results, in no order. Values joined by “and” are separate records of one study, mostly repeats; a detail may differ.

# Set 1 — organism: Arabidopsis thaliana; strain: Col-0
# Structure (SMILES): CCN1C(=O)C(O)(C(=O)O)Oc2cc(F)ccc21 (stereo not shown)
concentration,setting,hypocotyl length
3.125 µg/mL,"seed germination, single repetition",2.12 cm and 2.22 cm and 2.33 cm and 2.24 cm
12.5 µg/mL,"seed germination, single repetition",1.81 cm and 1.93 cm and 1.85 cm and 1.8 cm and 1.9 cm
12.5 µg/mL,"seed germination, repetition mean",1.87 cm
50 µg/mL,"seed germination, single repetition",1.61 cm and 1.63 cm and 1.62 cm and 1.65 cm
3.125 µg/mL,"seed germination, repetition mean",2.22 cm
50 µg/mL,"seed germination, repetition mean",1.63 cm
6.25 µg/mL,"seed germination, repetition mean",2.05 cm
25 µg/mL,"seed germination, repetition mean",1.73 cm
100 µg/mL,"seed germination, single repetition",1.23 cm and 1.26 cm and 1.24 cm and 1.27 cm

# Set 2 — cell line: U-87 MG; concentration: concentration not given; relative to: DMSO
# SMILES: CCN1/C(=C/C=C2\CCCC(/C=C/C3=[N+](CC)c4ccccc4C3(C)C)=C2NCCCCCCCCN2CCC(Nc3nc4ccccc4n3Cc3ccc(F)cc3)CC2)C(C)(C)c2ccccc21
item,log2 fold change
AHDC1 mRNA,-1.28
PGM3 mRNA,1.23
ZNF3 mRNA,0.882
SCN1B mRNA,-1.88
NLRC5 mRNA,-2.49
ALG2 mRNA,0.946
TENM2 mRNA,-2.95
PARG mRNA,0.867
SIGLEC15 mRNA,-1.5
ANKRD44 mRNA,-1.18
SEMA6B mRNA,-2.39
BARD1 mRNA,-1.39
RIOK3 mRNA,0.895
ADAM19 mRNA,-2.1
NREP mRNA,-2.63
CCDC103 mRNA,-0.973

# Set 3
# Structure (SMILES): COCC1CC2C(CCC3C(O)CCC32)c2ccc(O)cc21 (stereo not shown)
cell line,technique,item,concentration,relative to,log2 fold change
PANC-1,microarray,RFC3,100 µM,untreated,0.793
PANC-1,DNA microarray,MCM7,100 µM,untreated cells,-0.302
A549,DNA microarray,CCL8,25 µM,untreated cells,0
A549,microarray,ACTB,100 µM,untreated,-0.386
SK-OV-3,microarray,CCL11,100 µM,untreated,8.67
PANC-1,DNA microarray,C6,100 µM,untreated cells,6.6
A549,DNA microarray,MCM10,100 µM,untreated cells,-0.42
SK-OV-3,DNA microarray,MCM7,100 µM,untreated cells,-0.37
PANC-1,microarray,MCM6,100 µM,untreated,0.199
SK-OV-3,microarray,CDC25B,100 µM,untreated,0.171
PANC-1,DNA microarray,KIF20A,25 µM,untreated cells,0.568 and 0.599 and 0.588 and 0.539 and 0.668
A549,microarray,RFC3,100 µM,untreated,-0.0484

# Set 4 — cell line: MDA-MB-231; read-out: cell viability; technique: CellCounting-Lite; concentration: 24.69 nM; temperature: 37 °C; direction: higher = more viable cells
SMILES,luminescence signal
CCn1cnc2c(NCc3nc4ccc(F)c(F)c4[nH]3)nc(N3CCn4ncnc4C3)nc21,384000 a.u. and 479000 a.u. and 439000 a.u.
CCn1cnc2c(NCc3nc4cc(Cl)c(Cl)cc4[nH]3)nc(N3CCN(C(=O)c4ccncc4)CC3)nc21,246000 a.u. and 228000 a.u. and 204000 a.u.
CCn1cnc2c(NCc3nc4cc(Cl)c(Cl)cc4[nH]3)nc(N3CCN(C(=O)CNC(C)=O)CC3)nc21,431000 a.u. and 414000 a.u. and 428000 a.u.
CCn1cnc2c(NCc3nc4cc(Cl)c(Cl)cc4[nH]3)nc(N3CCN(c4ccccn4)CC3)nc21,673000 a.u. and 605000 a.u. and 555000 a.u.
CCn1cnc2c(NCc3nc4cc(Cl)c(Cl)cc4[nH]3)nc(N3CCN(C(C)=O)CC3)nc21,264000 a.u. and 248000 a.u. and 224000 a.u.
CCn1cnc2c(NCc3nc4cc(Cl)c(Cl)cc4[nH]3)nc(N3CCN(C(=O)[C@H](C)NC(C)=O)CC3)nc21,391000 a.u. and 459000 a.u. and 437000 a.u.
CC(=O)N1CCN(c2nc(NCc3nc4cc(Cl)c(Cl)cc4[nH]3)c3ncn(C)c3n2)CC1,388000 a.u. and 452000 a.u. and 150000 a.u.
CCn1cnc2c(NCc3nc4cc(Cl)c(Cl)cc4[nH]3)nc(N3CCN(C(=O)c4ccccn4)CC3)nc21,150000 a.u. and 178000 a.u. and 154000 a.u.
CCn1cnc2c(NCc3nc4cc(Cl)c(Cl)cc4[nH]3)nc(N3CCN(C(=O)c4cccnc4)CC3)nc21,134000 a.u. and 159000 a.u. and 132000 a.u.
CC(=O)N1CCN(c2nc(NCc3nc4cc(Cl)c(Cl)cc4[nH]3)c3ncn(-c4cnn(C)c4)c3n2)CC1,489000 a.u. and 526000 a.u. and 522000 a.u.
CCn1cnc2c(NCc3nc4cc(Cl)c(Cl)cc4[nH]3)nc(N3CCN(S(C)(=O)=O)CC3)nc21,314000 a.u. and 332000 a.u. and 298000 a.u.
CCn1cnc2c(NCc3nc4cc(Cl)c(Cl)cc4[nH]3)nc(N3CCn4ncnc4C3)nc21,235000 a.u. and 236000 a.u. and 200000 a.u.
CC(=O)N1CCN(c2nc(NCc3nc4cc(Cl)c(Cl)cc4[nH]3)c3ncn(C(C)C)c3n2)CC1,568000 a.u. and 540000 a.u. and 519000 a.u.
CCn1cnc2c(NCc3nc4cc(F)c(F)cc4[nH]3)nc(N3CCn4ncnc4C3)nc21,520000 a.u. and 454000 a.u. and 491000 a.u.
CCn1cnc2c(NCc3nc4cc(Cl)c(Cl)cc4[nH]3)nc(N3CCN(C(=O)c4ccccc4)CC3)nc21,374000 a.u. and 368000 a.u. and 311000 a.u.
CCCCOc1nc(NCc2nc3cc(Cl)c(Cl)cc3[nH]2)c2ncn(CC)c2n1,680000 a.u. and 616000 a.u. and 523000 a.u.
CCn1cnc2c(NCc3nc4cc(Cl)c(Cl)cc4[nH]3)nc(N3CCC(NC(C)=O)CC3)nc21,439000 a.u. and 521000 a.u. and 470000 a.u.
CCn1cnc2c(NCc3nc4cc(Cl)c(Cl)cc4[nH]3)nc(N3CCN(Cc4ccncc4)CC3)nc21,356000 a.u. and 343000 a.u. and 353000 a.u.

# Set 5 — read-out: thermal unfolding; technique: differential scanning fluorimetry; concentration: 5.5 µM; direction: higher = more unfolded
# Compound: C[C@@H]1CN(c2ccc(-c3cc(C(=O)NCCOCCOCCOCCOCCOCCOCCNC(=O)/C=C/c4[nH]cc(C(=O)N[C@@H](CC(N)=O)c5ccc(F)c(Cl)c5)c4-c4ccc(Cl)cc4F)ccc3F)cc2NC(=O)c2ccc(F)cc2C(F)(F)F)C[C@H](C)N1C
# DCAF1: DDB1- and CUL4-associated factor 1 (DCAF1, Homo sapiens, UniProt Q9Y4B6)
# Sequence of UniProt Q9Y4B6 (whole entry, looked up): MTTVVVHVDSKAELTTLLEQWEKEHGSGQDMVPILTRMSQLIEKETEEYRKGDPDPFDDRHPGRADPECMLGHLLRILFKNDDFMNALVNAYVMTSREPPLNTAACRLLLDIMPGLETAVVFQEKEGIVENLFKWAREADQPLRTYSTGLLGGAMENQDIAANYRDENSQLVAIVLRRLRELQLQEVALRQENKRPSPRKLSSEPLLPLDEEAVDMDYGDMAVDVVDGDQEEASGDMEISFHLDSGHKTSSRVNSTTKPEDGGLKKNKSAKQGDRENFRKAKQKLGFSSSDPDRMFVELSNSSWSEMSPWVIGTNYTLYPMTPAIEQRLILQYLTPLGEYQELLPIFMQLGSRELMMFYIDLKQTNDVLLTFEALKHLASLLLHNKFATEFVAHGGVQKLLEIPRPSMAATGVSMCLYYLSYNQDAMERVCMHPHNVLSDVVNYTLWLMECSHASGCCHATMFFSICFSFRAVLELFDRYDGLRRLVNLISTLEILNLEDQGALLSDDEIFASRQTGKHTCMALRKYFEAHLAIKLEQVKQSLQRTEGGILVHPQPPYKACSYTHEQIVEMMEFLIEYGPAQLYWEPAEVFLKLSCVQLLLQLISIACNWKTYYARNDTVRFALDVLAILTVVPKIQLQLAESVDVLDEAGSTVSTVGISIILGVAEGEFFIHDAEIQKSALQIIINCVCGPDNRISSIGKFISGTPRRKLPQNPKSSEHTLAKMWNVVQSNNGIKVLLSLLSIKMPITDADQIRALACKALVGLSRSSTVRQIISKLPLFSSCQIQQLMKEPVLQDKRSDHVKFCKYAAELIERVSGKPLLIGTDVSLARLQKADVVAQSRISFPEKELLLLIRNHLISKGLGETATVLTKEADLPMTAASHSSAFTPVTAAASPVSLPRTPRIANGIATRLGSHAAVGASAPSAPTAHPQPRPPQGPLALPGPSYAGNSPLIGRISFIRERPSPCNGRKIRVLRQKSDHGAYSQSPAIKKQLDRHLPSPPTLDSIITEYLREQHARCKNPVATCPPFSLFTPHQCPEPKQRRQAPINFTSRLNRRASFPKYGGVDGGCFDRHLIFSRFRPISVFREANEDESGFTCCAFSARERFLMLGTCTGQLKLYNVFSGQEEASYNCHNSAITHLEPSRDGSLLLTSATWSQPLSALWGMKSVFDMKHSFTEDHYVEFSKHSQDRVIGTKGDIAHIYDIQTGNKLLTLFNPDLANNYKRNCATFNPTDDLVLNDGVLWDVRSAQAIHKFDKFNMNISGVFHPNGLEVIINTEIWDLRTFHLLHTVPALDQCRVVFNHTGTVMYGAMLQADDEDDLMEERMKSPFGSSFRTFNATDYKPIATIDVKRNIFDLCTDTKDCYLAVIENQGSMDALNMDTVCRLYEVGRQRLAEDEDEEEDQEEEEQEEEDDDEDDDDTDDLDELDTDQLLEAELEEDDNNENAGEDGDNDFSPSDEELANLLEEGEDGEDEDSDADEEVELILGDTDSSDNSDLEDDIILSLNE
# WDR5: WD repeat-containing protein 5 (WDR5, Homo sapiens, UniProt P61964)
target,temperature,SYPRO Orange fluorescence [a.u.]
DCAF1,55.01 °C,27000
WDR5,90.01 °C,55100
WDR5,89.81 °C,55300
DCAF1,58.01 °C,38600
DCAF1,51.8 °C,20100
DCAF1,93.61 °C,29700
WDR5,28.2 °C,13500
WDR5,29 °C,13500
DCAF1,45 °C,14500
WDR5,54.81 °C,16800
DCAF1,28.6 °C,8050

# Set 6 — read-out: KRAS-RAF interaction; mode: inhibitor; technique: TR-FRET; with: SOS-mediated nucleotide exchange
# Compound: Cc1c(F)cc2[nH]ncc2c1-c1c(C2CC2)cc2c(N3C[C@@H]4C[C@H]3CN4)nc(OC3CCOCC3)nc2c1OCc1ccccc1
# KRAS with RAF: GTPase KRas, with RAF (KRAS, Homo sapiens, UniProt P01116)
# KRAS G12D with RAF: GTPase KRas, with RAF (KRAS, Homo sapiens, UniProt P01116, G12D)
target,concentration,inhibition
KRAS with RAF,100 nM,-4.49% and -3.73%
KRAS with RAF,1 µM,-4.11% and -0.631%
KRAS G12D with RAF,30 nM,-1.28% and -2.58%
KRAS with RAF,10 nM,-4.57% and -5%
KRAS G12D with RAF,3 µM,32.3% and 21.2%
KRAS G12D with RAF,300 nM,-5.92% and -3.1%
KRAS G12D with RAF,10 µM,80.4% and 88.1%

# Set 7 — cell line: P493B lymphoma cells; matrix: human plasma; concentration: concentration not given; setting: plasma fraction of partition
SMILES,DON concentration
CC(=O)N[C@@H](Cc1c[nH]c2ccccc12)C(=O)N[C@@H](CCC(=O)C=[N+]=[N-])C(=O)OC(CF)CF,0.21 nmol/mL
CC(C)OC(=O)[C@H](CCC(=O)C=[N+]=[N-])NC(=O)[C@H](Cc1c[nH]c2ccccc12)NC(=O)CN1CCN(C)CC1,0.03 nmol/mL
COCCOCCOC(=O)[C@H](CCC(=O)C=[N+]=[N-])NC(=O)[C@H](Cc1c[nH]c2ccccc12)NC(=O)CN(C)C,0.18 nmol/mL
COCCOCCOC(=O)[C@H](CCC(=O)C=[N+]=[N-])NC(=O)[C@H](Cc1c[nH]c2ccccc12)NC(C)=O,0.18 nmol/mL

# Mixed results
SMILES,assay,test system,conditions,measurement,value
Cc1ccc(O)c(C)c1-c1cnc2[nH]c(-c3cnc(N4CCC5(CC4)CC(CN4CCN(c6ccc(NC7CCC(=O)NC7=O)cc6F)CC4)C5)nc3)cc2c1C#N (stereo not shown),,"CD-1 mouse, female, plasma","oral, 20 mg/kg",oral bioavailability,32.2%
Cc1nc(C)c(C=[N+]([O-])C(C)(C)C)nc1C,Western blot,MPTP mouse model,90 mg/kg,pSer473-Akt/total Akt,131 and 94.3 and 112 and 132
Cc1ccc(O)c(C)c1-c1cnc2[nH]c(-c3cnc(N4CCC(CN5CCN(c6ccc(NC7CCC(=O)NC7=O)cc6F)CC5)CC4)nc3)cc2c1C#N (stereo not shown),,"female CD-1 mouse, plasma","oral, 10 mg/kg",bioavailability,35.4%
Cc1ccc(O)c(C)c1-c1cnc2[nH]c(-c3cnc(N4CCC(CN5CCN(c6ccc7c(c6)CN(C6CCC(=O)NC6=O)C7=O)CC5)CC4)nc3)cc2c1C#N (stereo not shown),,"female CD-1 mouse, plasma","oral, 10 mg/kg",bioavailability,9.1%
Cc1ccc(O)c(C)c1-c1cnc2[nH]c(-c3cnc(N)nc3)cc2c1C#N,KINOMEscan,403 non-mutant kinase panel,"1000 nM, percent of control below 10",number of kinases bound,5

# Some of these lines once more (set 6):
target,concentration,inhibition
KRAS G12D with RAF,10 µM,80.4% and 88.1%
KRAS with RAF,1 µM,-4.11% and -0.631%
KRAS with RAF,100 nM,-4.49% and -3.73%
KRAS with RAF,10 nM,-4.57% and -5%
KRAS G12D with RAF,3 µM,32.3% and 21.2%
KRAS G12D with RAF,30 nM,-1.28% and -2.58%
KRAS G12D with RAF,300 nM,-5.92% and -3.1%
